Measured values pooled from the literature.
Parts stem from different laboratories: compare values within a part only.

Block 1
Target: Prothrombin, mature alpha-thrombin (F2, Homo sapiens, UniProt P00734)
Technique: aptamer microarray, sandwich
Molecule type: DNA with 2'F-ANA
Medium: in vitro
Tested at: 200 nM
Notes: whole 15-mer aptamer, many near background
With: Cy3 exosite-II aptamer, 400 nM
Reading: higher = stronger binding
Oligonucleotide: GGTTGGTGTGGTTGG
For `2'F-ANA at 4 5 8 14`, “mean fluorescence intensity” read 49.9 a.u.
For `2'F-ANA at 1 2 4 5 6 7 10 11 13 14 15`, “mean fluorescence intensity” read 55.1 a.u.
For `2'F-ANA at 5 6 7 10 13 14 15`, “mean fluorescence intensity” read 45.6 a.u.
Under “mean fluorescence intensity”, `2'F-ANA at 5 8 12 13` is recorded as 121 a.u.
Under “mean fluorescence intensity”, `2'F-ANA at 3 4 6 9 10` is recorded as 264 a.u.
`2'F-ANA at 2 4 7 8 11 12 15`: “mean fluorescence intensity” 563 a.u.
`2'F-ANA at 4 6 7 8 9 10 15`: “mean fluorescence intensity” 130 a.u.
Under “mean fluorescence intensity”, `2'F-ANA at 1 3 4 9 12 14 15` is recorded as 83.1 a.u.
`2'F-ANA at 2 3 4 6 7 8 12 14` — result for “mean fluorescence intensity”: 358 a.u.
`2'F-ANA at 5 8 10 11 15` — result for “mean fluorescence intensity”: 46.8 a.u.
`2'F-ANA at 3 5 6 7 13 14`: “mean fluorescence intensity” 49.7 a.u.
Under “mean fluorescence intensity”, `2'F-ANA at 2 4 6 7 8 9 13 15` is recorded as 189 a.u.
For `2'F-ANA at 2 8 9 10 11 12 15`, “mean fluorescence intensity” read 131 a.u.
For `2'F-ANA at 1 2 4 6 11 13 14 15`, “mean fluorescence intensity” read 110 a.u.
`2'F-ANA at 2 3 4 6 9 10 13 14 15` — result for “mean fluorescence intensity”: 156 a.u.
`2'F-ANA at 1 3 4 9 13 15`: “mean fluorescence intensity” 116 a.u.
`2'F-ANA at 3 5 8 9 12 13 15`: “mean fluorescence intensity” 179 a.u.
`2'F-ANA at 1 4 5 6 7 9 10 11 13 15`: “mean fluorescence intensity” 49.7 a.u.
Under “mean fluorescence intensity”, `2'F-ANA at 1 2 3 4 6 7 9 11 13 14 15` is recorded as 55.2 a.u.
`2'F-ANA at 2 4 5 6 8 10 11 12 13 14` — result for “mean fluorescence intensity”: 48.8 a.u.
Under “mean fluorescence intensity”, `2'F-ANA at 1 11 15` is recorded as 183 a.u.

Block 2
Target: Ras GTPase-activating protein-binding protein 1, full length (G3BP1, Homo sapiens, UniProt Q13283)
Sequence of UniProt Q13283 (whole entry, looked up): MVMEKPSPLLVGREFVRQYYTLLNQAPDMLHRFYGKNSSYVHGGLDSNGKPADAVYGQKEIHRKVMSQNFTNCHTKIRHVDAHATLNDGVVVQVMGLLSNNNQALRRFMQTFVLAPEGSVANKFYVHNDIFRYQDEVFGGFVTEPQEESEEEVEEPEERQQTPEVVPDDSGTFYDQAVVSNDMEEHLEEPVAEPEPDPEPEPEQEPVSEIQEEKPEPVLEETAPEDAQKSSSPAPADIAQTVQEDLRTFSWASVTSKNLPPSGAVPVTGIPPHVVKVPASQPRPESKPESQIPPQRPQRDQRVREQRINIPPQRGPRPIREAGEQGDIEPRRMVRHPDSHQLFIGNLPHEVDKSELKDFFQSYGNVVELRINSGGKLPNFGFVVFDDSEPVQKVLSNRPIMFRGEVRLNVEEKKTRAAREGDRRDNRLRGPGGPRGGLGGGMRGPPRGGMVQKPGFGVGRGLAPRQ
Technique: RNA Bind-n-Seq
Molecule type: RNA
Medium: in vitro
Tested at: 200 nM
Notes: whole 134-nt RNA, ends assumed
With: 150 mM LiCl
Baseline: input library
Reading: higher = stronger binding
Each molecule: 7-deaza-guanosine replaces G
`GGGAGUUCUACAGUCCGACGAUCAGUCCUGUGCUACACAUCGUAUGUACCGAAUCGGGGUUUUUGGUUUUUGGGUUUUUGGAAAGUAUUAUGUUACGCCGUUCGGAUCUGCACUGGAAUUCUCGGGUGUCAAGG` has a log2 enrichment of -0.179.
`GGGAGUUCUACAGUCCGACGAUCAGUCCUGUGCUACACAUCGUAUGUACCGAAUCGGGGCCCCGGGCCCCGGGCCCCGGGGAAAGUAUUAUGUUACGCCGUUCGGAUCUGCACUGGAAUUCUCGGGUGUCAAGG` gave a log2 enrichment of -1.87.
With `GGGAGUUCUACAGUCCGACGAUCCCUCAAGUCCUGUGCUACACAUCGUAUGUACCGAAUCGGUUUUUGGUGGAGGAAAGUAUUAUGUUACGCCGUUCGGAUCUGCACUUCCAGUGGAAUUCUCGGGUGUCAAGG` the log2 enrichment was 0.232.
The log2 enrichment of `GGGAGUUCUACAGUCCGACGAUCAACAGACAACACGCACCCACACAGACACAGAGGGAAGGGGUUGGGAUGGGGACAGGGUGCACAGCAGGGCGGGGUAGGACCCCAGCCCCUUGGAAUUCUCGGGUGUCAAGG` is reported as 0.255.
`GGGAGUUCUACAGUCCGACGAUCUGGGAGGUGGAUUUUGUUUAUAUUUUUAGCUCAUUUCCAGGGGUGGGAAUUUUUUUUUAAUAUGUGUCAUGAAUAAAGUUGUUUUUGAAAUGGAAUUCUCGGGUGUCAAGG` has a log2 enrichment of -0.325.
`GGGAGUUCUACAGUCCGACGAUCUCCUGUGCUACACAUCGUAUGUACCGAAUCAAAUUUUUUUAAAUUUUUAAAUUUUUAAAAAAGUAUUAUGUUACGCCGUUCGGAUCUGCAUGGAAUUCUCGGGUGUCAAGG` has a log2 enrichment of -2.4.
With `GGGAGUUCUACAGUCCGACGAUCCACAGACAACACGCACCCACACAGACACAGAGGGAAGGGGUUUGGAUGGGGACAGGGUGCACAGCAGGGCGGGGUAGGACCCCAGCCCCUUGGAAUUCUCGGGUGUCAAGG` the log2 enrichment was -1.41.
The log2 enrichment of `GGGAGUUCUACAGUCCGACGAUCUCCGCGUGUGAAGUUUUUCUCGGCUGCAUCAUGGGUGCCACAUUCUUUUUGUUGUUUUCAGUGCUGCAAAAGCCCCAUAUCUGGCCAAGUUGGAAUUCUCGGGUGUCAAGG` is reported as 0.373.

Block 3
Target: RING finger protein unkempt homolog, zinc fingers 1-6, SBP tag (UNK, Homo sapiens, UniProt Q9C0B0, residues 30-357)
Sequence of UniProt Q9C0B0 (30-357, looked up): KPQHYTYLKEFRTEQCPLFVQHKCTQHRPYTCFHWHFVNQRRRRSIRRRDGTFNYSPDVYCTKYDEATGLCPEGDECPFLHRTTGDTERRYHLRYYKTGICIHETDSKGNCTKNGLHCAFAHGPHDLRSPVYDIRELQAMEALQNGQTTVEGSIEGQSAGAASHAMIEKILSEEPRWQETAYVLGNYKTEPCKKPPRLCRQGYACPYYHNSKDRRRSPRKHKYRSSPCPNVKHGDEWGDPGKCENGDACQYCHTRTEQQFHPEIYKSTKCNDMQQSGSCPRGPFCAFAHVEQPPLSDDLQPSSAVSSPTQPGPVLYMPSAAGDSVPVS
Technique: RNA Bind-n-Seq
Molecule type: RNA
Medium: in vitro
Tested at: 100 nM
Notes: RNA with constant flanks, vertebrate orthologous sites, ends assumed
Baseline: input RNA pool
Reading: higher = stronger binding
The bound/input enrichment of `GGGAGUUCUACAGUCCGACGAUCGUUGUUUUGUACAGGGCAUUCUCUGUACUAAUUUGUUGUGGUUAUAAACAGUUAGCAAAACAGCUUACAUUUGUAUUUAUUUUCUAUUCCAUACCUCUCUGCCCAUGUUUUUUCUCCUCACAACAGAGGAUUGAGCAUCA` is reported as 1.24 ratio.
For `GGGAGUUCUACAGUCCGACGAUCGUGACUUUGGAAGUCCGCUCAUCAUCUGUGCAGAGUCUAGCCGGUUCCGGGCCUUGCAGUAUUGUUUUUCUUUGCUGCACCCGAGACCUCUGUCGCAACCAUGCUCCGCCAUAUCGUCGGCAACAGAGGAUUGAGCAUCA`, the bound/input enrichment was 0.131 ratio.
The bound/input enrichment of `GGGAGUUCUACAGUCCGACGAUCUGGGUUACUCCUAUUAUUAUCAAGUAGCUGGAAUUGUGAAGGUCGGAGUAGUUAGAUCUUUAGCUUUUAUUCCUUUUUUUGUAUUACUAUCCAUGUGUAUAAAUUAUUGAUCAUGUUGCUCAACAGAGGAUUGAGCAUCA` is reported as 1.73 ratio.
For `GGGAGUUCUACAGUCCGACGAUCCAUUUUCUCACUUUAGGUACCAUUGCCCAAUGCCCAAGAUCUUUUAUGUUCAGCUGACUGUAGGAAAUAAUGAAUUUUUUGGGGAAGGAAAGACUCGCCAAGCCGCUAGACACAACGCAGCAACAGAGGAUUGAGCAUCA`, the bound/input enrichment was 1.09 ratio.
For `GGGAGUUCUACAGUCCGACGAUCCCCUCUGAACCCCAUUUCUUCUGUUUCAUAGUGCAGAAGUAUAUUUUUCAACUACAUUAUUAGUGGACUUGUUUUAAUUUUAGGGAAACUUUCAGUACAGAUACUGUGAGCUUACAUGGACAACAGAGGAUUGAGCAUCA`, the bound/input enrichment was 2.21 ratio.
The bound/input enrichment of `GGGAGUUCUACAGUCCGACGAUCGUUUGUUUUUUAAUUUUAUUUUUAUUUUUUCCUUUUGGGGGUAAAGUUUGCUCUACCAAAUAGUGAUUGUAACCAAUUGAUCUGUUUGGGAUGUUGCUAUAGUGACAUGCAGUUCUCUAUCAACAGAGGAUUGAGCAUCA` is reported as 2.42 ratio.
For `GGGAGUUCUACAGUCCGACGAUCUCAUUGUACUGCAAAAAUCAUCCUAGUUCUAAACUAGCCACAGUGAUAACUAGUCUGCACUAAUAGAAUCAUUUGCUAUUACCUUUUAAAUUAUCUGCUUUGUCUGAUACCUAAAGCACACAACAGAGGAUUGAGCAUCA`, the bound/input enrichment was 0.887 ratio.
For `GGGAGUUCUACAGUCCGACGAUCCUUACUUAGAGGGAAAUAUAUGUUUCAUAAGGAAGAGUCUUGAUAAUUUUGUUUGUCAGAUAGUAUUUUGGAAUUUGUAUGAGGAUGUUUAGAAGCCUUAUAAGUGGCUUUUUUUAACAGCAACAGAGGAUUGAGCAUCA`, the bound/input enrichment was 0.38 ratio.

Block 4
Target: RNA binding protein fox-1 homolog 2, RRM domain, GST-SBP tag (RBFOX2, Homo sapiens, UniProt O43251-10, residues 100-194)
Technique: RNA Bind-n-Seq
Molecule type: RNA
Medium: in vitro
Tested at: 365 nM
Notes: natural RNA segment, single round, ends assumed
Baseline: no-protein control
Reading: higher = stronger binding
Target sequence (chain): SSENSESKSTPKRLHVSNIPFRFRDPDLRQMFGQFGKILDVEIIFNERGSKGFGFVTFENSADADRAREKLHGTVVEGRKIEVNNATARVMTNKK
`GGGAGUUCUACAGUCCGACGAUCGCAGCCUAGGGGGCACUGCCCUACAGAAAAGGUCUGCCUGAGAGGCCUGAGGAGCCCAGAGCACUUGACUGAGCUUCCCGGAAACUGGCCCUAACCUGUCUGUCUCCGUGUGGAAUUCUCGGGUGCCAA`: “RBNS enrichment (R)” 0.164.
`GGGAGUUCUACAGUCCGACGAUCUCAACUGUGCAAAAAACAAAAGAUGGAGUGUUUACAAGUAGACAUUCGUCAUCAGUUGUUCUUGAACAUGGUCUUUUAAAAACUAGUCAGAUGAAUUGUUUUCAUCUGAAUGGAAUUCUCGGGUGCCAA`: “RBNS enrichment (R)” 0.267.
`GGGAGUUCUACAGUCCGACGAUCACAUCUGUUACCUUGAAAAACAUUGAAGAAAGUACUGAAGUGUGCAUGGAGGUGGUUUAAGCAUAAUACUUAACCCAAGAAAGAGUGUAAGUGGACACAAGCUGUGCCUGUGGAAUUCUCGGGUGCCAA` — result for “RBNS enrichment (R)”: 1.08.
Under “RBNS enrichment (R)”, `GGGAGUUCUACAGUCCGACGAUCUUGGUUUCUAGAAGGAAGGGAAAUAAUAUUUCUUGAGCAUUUACUAGGGUGUUGCGUGCUGUGCUAAGUAAAUUUUAAGUCUUUCAGUUUUAUAGAUACGGAAAACAAGGUGGAAUUCUCGGGUGCCAA` is recorded as 2.35.
Under “RBNS enrichment (R)”, `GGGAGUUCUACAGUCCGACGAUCUGGUUUCCCUUGCGUAAUUGAUAAGCCCAGUUAUUCAGUAAUGUUUACAAAUUAAUUGACUUUGAUAGUUAAAAGAUUAUGAGGUAACCCAUCUGCAAUUUGCCUGUGGGUGGAAUUCUCGGGUGCCAA` is recorded as 0.464.
`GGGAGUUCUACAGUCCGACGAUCAGUGCAGUCGAGUUGUCUGGCCAUCUGUAUUUGGAUCUAUAACUGUACUUUGCCUGGCGCUGUGCGCAAGGUCAGAAAACUUACUGCUAGUACCUAGAAACACACAAGGCUGGAAUUCUCGGGUGCCAA`: “RBNS enrichment (R)” 1.05.
`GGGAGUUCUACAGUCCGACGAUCCAUCCUCCAAUUGUGUUUAUUUACAUGAGAAGAUCAUACAAAAGCCCUCCGCUCUAGUCCUAGCAGGGCAGCCAUGAGCCGAGGGGAGGUGGAGAAGGCUUGUGCAGGUAUGGAAUUCUCGGGUGCCAA` — result for “RBNS enrichment (R)”: 0.418.
For `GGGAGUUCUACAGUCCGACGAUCUCUGUCAUGGAAAUAUUCACAAGAAAGCUGGCAUCUGUCCCAAUUCUCUCUCCUGUAAAUCCACGAGCACGGUCUGGAUCUGGAUGAAUAAAUAUAUUUCCUUAGGUGAUUGGAAUUCUCGGGUGCCAA`, “RBNS enrichment (R)” read 1.86.
